Measured values gathered from unrelated publications.
A part holds a random share of what one study measured. Changes are numbered by the printed parent chain.

Set 1 — method: protein-binding microarray; molecule type: double-stranded DNA, one strand shown; medium: in vitro; concentration: 940 nM top; setting: 60-bp whole probe; with: salmon DNA 0.4 mg/ml; relative to: random background probes; direction: higher = stronger binding; quantity: fitted relative affinity; shared flanks, not repeated: GCCTAGCAC … GTCTTGATTCGCTTGACGCTGCTG
Target: Interferon regulatory factor 5, full length, phosphomimetic (IRF5, Homo sapiens, UniProt Q13568-2, residues 1-514, S451D/S453D/S456D/S462D)
ATTTTTTTATCAATCATTTTGTGCTAG: 0.922 z-score
GACGGACAGGACTTTCGGGACGTGCTA: 0.711 z-score
GACGCACTGGGACTGGGGACGTGCTAG: -0.491 z-score
TCAGGTTTCGGGTATCGGTTAGTGCTA: 10.3 z-score
AAGCAGTTACTCTAGAGGCCGTGCTAG: -0.65 z-score
GACGAACGGAGTTTCGAGACGTGCTAG: 3.6 z-score
GACGGGCTGCTTCTCCTGACGTGCTAG: -0.505 z-score
GACGAAGTGAGTATCGAGACGTGCTAG: 1.88 z-score

Set 2 — method: RNA Bind-n-Seq; molecule type: RNA; medium: in vitro; concentration: 1 µM; setting: whole 134-nt RNA, ends assumed; with: 150 mM KCl; relative to: input library; direction: higher = stronger binding; quantity: log2 enrichment
Target: Ras GTPase-activating protein-binding protein 1, C-terminal RGG region (G3BP1, Homo sapiens, UniProt Q13283)
UniProt Q13283, sequence (whole entry, looked up): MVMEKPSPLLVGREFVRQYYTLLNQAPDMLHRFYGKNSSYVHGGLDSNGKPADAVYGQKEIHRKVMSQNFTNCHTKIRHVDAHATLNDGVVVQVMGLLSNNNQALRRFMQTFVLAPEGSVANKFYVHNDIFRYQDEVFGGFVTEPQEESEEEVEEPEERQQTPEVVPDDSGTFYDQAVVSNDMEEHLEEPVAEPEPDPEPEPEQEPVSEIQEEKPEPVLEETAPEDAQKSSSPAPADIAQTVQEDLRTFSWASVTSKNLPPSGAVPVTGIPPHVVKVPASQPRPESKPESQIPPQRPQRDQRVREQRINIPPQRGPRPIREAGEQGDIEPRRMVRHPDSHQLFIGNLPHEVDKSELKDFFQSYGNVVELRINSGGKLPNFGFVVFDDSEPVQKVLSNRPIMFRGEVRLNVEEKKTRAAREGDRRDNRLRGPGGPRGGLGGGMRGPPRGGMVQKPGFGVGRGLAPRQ
Shared flanks, not repeated: GGGAGUUCUACAGUCCGACGAUC … UGGAAUUCUCGGGUGUCAAGG
UUGCGGCAGCCGCCCCCUUCUGCGCGGUCACGCCGAGCCAGCGCCUGGGCCUGGAACCGGGCCGUAGCCCCCCCAGUUUCGCCCACCACC: -0.255
AGUCCUGUGCUACACAUCGUAUGUACCGAAUCGGGAAAGGGAAAGGGUUUUUUUGGGAAAGUAUUAUGUUACGCCGUUCGGAUCUGCACU: 0.275
UAACUUUAGAGGAGGAUCUGAUGGAUAUGGCAGUGGACGUGGAUUUGUGGAUGGCUAUAAUGGGUAUGGAGGAGGACCUGGAGGUGGCAA: -0.948
AAGUCCUGUGCUACACAUCGUAUGUACCGAAUCGGGAAAGGGGAAAGGGGAAAGGGGAAAGUAUUAUGUUACGCCGUUCGGAUCUGCACU: 1.23
AAGUCCUGUGCUACACAUCGUAUGUACCGAAUCGGAAAAAGGGAAAAAGGAAAAAGGAAAGUAUUAUGUUACGCCGUUCGGAUCUGCACU: -1.91

Set 3 — target: CCND2, cyclin fold, Cln2 fusion (human); method: yeast growth competition, sequencing; medium: yeast; setting: weak parent motif; relative to: not given; direction: higher = stronger binding; quantity: normalised enrichment score
Parent: SCAPER docking peptide (human); SNARRSLNFGGST; partner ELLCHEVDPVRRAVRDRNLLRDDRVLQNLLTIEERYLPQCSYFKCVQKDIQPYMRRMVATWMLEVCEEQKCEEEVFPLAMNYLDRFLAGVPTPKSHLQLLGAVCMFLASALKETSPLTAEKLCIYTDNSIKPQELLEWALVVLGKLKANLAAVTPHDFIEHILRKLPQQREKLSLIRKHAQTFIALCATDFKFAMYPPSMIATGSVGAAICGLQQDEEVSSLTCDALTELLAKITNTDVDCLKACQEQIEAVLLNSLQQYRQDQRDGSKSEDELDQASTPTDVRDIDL
SNARRCLNFGGST [S6C]: 1.14
SNARESLNFGGST [R5E]: 0.113
SNARRPLNFGGST [S6P]: 0.399
SNARRSLPFGGST [N8P]: 0.257
SNARRSLNFGGSN [T13N]: 0.732

Single results of other studies
PhoQ, residues 284 288 289 292 302 303 SLSLLA — fold induction (PhoP, residues 12 14 15 18 19 SEGLL (Escherichia coli, UniProt P23836); Sort-seq, measured: YFP reporter; E. coli; PhoQ-PhoP variant library, with: 10 µM Mg2+; relative to: high Mg2+ state, higher = stronger signaling): 6.22

For quick reference, copied from above (set 1):
GACGGACAGGACTTTCGGGACGTGCTA: 0.711 z-score
GACGCACTGGGACTGGGGACGTGCTAG: -0.491 z-score
